Results from different studies.
Each numbered part is a random draw from the data of one study; scales do not carry over between parts.
Chain of UniProt Q5XXA6 (whole entry, unmodified, looked up): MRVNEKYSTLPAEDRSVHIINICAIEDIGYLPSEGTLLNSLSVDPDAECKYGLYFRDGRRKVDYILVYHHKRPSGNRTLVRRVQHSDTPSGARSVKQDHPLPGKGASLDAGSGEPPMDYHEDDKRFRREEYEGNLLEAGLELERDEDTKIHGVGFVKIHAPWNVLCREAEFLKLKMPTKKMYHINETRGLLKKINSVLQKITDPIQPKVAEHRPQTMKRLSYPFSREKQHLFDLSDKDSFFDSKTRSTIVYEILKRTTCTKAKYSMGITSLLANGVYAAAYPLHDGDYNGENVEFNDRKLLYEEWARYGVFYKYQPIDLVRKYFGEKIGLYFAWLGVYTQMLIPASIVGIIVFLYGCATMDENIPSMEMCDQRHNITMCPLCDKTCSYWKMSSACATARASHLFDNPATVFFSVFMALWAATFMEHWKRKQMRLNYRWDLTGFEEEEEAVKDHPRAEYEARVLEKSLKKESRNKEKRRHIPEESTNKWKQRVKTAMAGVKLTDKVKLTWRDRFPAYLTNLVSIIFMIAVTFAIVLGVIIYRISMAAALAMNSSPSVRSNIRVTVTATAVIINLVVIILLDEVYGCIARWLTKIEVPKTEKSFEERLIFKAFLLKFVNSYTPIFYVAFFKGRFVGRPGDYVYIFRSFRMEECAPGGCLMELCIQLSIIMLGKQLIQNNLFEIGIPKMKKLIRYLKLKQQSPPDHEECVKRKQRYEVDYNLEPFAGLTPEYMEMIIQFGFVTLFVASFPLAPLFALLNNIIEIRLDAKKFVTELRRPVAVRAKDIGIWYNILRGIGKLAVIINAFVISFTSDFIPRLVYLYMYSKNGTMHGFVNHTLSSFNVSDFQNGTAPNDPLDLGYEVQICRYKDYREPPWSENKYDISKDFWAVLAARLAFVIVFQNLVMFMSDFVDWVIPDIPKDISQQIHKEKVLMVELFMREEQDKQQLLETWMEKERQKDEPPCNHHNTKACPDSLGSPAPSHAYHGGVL
Chain of UniProt P17948 (whole entry, looked up): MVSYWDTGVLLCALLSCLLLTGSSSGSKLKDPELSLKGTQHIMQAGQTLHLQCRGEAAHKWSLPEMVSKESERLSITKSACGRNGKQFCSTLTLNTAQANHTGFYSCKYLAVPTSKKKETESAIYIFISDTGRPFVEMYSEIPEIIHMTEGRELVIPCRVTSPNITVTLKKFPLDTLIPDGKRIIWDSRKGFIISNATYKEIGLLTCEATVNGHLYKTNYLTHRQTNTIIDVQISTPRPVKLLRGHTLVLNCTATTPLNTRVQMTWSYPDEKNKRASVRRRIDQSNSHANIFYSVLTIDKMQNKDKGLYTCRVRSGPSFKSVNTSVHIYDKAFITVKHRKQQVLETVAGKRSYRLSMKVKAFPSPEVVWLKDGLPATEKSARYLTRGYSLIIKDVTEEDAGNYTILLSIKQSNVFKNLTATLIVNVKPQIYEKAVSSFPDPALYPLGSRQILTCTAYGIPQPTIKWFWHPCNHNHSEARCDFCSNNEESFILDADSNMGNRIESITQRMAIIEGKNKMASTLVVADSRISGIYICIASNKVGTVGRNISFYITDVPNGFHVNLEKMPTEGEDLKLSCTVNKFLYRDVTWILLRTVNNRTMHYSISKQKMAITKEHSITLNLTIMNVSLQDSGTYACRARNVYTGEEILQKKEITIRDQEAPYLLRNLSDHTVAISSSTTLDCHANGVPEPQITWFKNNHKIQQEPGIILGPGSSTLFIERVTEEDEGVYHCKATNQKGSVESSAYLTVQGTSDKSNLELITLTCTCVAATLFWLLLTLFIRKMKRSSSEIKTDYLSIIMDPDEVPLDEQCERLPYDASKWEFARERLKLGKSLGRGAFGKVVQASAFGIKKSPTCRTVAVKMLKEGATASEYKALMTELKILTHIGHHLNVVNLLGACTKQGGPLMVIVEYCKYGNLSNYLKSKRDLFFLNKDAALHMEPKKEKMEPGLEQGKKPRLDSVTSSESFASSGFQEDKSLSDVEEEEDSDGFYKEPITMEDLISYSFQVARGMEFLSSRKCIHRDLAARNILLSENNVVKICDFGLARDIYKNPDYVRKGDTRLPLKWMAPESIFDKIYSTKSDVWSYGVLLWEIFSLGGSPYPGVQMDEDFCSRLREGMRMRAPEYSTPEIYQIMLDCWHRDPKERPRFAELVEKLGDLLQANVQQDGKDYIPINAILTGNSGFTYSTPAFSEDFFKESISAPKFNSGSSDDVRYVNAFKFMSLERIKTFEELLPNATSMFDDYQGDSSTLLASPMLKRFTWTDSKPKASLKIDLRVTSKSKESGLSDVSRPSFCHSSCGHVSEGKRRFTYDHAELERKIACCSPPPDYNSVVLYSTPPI
Chain of UniProt Q9BYP7 (whole entry, looked up): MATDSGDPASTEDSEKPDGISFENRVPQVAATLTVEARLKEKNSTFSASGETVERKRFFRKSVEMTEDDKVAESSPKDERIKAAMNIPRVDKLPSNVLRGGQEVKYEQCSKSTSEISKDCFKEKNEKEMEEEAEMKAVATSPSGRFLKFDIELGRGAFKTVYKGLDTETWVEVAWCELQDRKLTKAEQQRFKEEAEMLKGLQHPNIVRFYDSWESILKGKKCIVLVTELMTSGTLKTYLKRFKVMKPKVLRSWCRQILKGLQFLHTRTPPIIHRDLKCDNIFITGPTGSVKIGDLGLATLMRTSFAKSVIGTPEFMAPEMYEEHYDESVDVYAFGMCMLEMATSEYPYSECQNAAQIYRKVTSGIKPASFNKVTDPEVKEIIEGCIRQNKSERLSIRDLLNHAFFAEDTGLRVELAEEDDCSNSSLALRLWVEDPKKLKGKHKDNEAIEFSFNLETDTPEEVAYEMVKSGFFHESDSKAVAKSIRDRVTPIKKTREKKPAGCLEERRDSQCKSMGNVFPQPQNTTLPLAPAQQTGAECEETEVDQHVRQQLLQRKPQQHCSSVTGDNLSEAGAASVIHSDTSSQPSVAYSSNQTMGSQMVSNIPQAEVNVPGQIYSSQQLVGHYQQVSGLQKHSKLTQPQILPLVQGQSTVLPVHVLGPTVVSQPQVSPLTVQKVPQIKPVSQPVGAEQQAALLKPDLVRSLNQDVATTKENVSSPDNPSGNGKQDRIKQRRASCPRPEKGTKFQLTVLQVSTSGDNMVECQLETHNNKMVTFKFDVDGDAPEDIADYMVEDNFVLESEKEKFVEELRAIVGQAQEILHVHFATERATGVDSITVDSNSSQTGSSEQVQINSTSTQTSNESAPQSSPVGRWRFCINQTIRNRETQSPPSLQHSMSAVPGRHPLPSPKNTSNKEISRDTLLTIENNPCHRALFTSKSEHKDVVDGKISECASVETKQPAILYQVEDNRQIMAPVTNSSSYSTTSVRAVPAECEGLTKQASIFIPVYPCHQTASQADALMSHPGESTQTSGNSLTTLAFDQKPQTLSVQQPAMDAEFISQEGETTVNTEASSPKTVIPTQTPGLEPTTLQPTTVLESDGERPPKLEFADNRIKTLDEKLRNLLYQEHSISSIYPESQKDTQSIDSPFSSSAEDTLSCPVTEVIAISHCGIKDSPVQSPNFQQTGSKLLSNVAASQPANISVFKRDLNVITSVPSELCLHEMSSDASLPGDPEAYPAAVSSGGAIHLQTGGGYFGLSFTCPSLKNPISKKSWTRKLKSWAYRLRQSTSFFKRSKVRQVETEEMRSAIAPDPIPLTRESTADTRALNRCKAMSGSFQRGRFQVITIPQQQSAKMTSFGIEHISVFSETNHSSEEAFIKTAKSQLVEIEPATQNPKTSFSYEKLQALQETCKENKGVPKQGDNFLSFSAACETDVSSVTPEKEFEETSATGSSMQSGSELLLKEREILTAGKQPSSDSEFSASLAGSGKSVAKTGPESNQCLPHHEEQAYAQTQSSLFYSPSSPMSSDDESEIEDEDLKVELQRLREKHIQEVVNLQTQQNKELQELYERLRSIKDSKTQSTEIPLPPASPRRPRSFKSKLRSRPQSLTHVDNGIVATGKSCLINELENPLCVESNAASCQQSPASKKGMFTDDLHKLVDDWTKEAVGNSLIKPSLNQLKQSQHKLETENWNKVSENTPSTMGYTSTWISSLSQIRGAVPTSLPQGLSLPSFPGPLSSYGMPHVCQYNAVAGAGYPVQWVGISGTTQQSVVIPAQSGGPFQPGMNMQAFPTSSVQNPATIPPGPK
Chain of UniProt P51955 (whole entry, looked up): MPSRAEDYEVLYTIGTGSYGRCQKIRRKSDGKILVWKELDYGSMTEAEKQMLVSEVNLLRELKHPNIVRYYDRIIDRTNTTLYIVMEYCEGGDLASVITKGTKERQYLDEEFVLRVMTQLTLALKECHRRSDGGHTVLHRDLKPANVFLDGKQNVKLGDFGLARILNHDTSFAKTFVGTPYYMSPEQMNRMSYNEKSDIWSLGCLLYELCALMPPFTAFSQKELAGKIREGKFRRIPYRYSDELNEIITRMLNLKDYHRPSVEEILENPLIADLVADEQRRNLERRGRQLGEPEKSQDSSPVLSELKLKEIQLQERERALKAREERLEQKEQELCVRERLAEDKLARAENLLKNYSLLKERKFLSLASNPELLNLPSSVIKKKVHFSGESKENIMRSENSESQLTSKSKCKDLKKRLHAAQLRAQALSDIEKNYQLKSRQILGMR

Set 1
SMILES: C[C@@H]1CN(c2cc(-c3n[nH]c4ccc(OC5(C)CC5)cc34)ncn2)C[C@H](C)O1
Effect on: cell-free assay
Technique: competition with immobilised ligand
Tested at: 0.1 µM
It gave 86% for remaining binding (NEK2 (Homo sapiens, UniProt P51955)).
It gave 68% for remaining binding (CHEK2 (Homo sapiens, UniProt O96017)).
The remaining binding was 100% (TNIK (Homo sapiens, UniProt Q9UKE5)).
The remaining binding was 88% (CDK11B (Homo sapiens, UniProt P21127)).
DYRK1A (Homo sapiens, UniProt Q13627) — remaining binding: 95%.
For EPHB3 (Homo sapiens, UniProt P54753): remaining binding read 98%.
It gave 96% for remaining binding (MAPK13 (Homo sapiens, UniProt O15264)).
The remaining binding was 73% (TAOK2 (Homo sapiens, UniProt Q9UL54)).
For RET (Homo sapiens, UniProt P07949, V804L): remaining binding read 98%.
It gave 88% for remaining binding (MAP2K1 (Homo sapiens, UniProt Q02750)).
For MAP3K14 (Homo sapiens, UniProt Q99558): remaining binding read 64%.
STK33 (Homo sapiens, UniProt Q9BYT3) — remaining binding: 86%.
The remaining binding was 76% (CHUK (Homo sapiens, UniProt O15111)).
It gave 84% for remaining binding (CDK13 (Homo sapiens, UniProt Q14004)).
For TLK1 (Homo sapiens, UniProt Q9UKI8): remaining binding read 94%.
The remaining binding was 73% (WNK3 (Homo sapiens, UniProt Q9BYP7)).
For CLK1 (Homo sapiens, UniProt P49759): remaining binding read 86%.
FLT1 (Homo sapiens, UniProt P17948) — remaining binding: 100%.
It gave 100% for remaining binding (CAMK1D (Homo sapiens, UniProt Q8IU85)).

Set 2
Target: Calcium/calmodulin-dependent protein kinase type II subunit alpha (CAMK2A, Homo sapiens, UniProt Q9UQM7)
Chain of UniProt Q9UQM7 (whole entry, looked up): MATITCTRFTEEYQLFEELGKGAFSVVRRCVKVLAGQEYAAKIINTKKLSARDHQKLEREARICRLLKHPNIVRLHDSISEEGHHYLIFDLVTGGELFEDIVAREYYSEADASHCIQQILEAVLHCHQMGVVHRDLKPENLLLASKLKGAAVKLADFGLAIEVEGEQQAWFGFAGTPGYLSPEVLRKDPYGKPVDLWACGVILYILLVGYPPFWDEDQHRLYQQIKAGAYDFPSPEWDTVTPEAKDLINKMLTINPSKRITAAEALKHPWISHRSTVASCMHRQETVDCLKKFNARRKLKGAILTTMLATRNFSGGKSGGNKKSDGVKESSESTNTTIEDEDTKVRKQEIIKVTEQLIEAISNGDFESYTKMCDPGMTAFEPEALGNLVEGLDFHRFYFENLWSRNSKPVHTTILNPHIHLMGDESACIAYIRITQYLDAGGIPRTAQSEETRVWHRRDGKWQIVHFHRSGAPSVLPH
Effect on: enzyme activity
Mode: inhibitor
Tested at: 10 µM
With `CC(=O)CCC=C(C)C` the inhibition was -3%.
`CCOC(=O)C1=C(COCCN)NC(C)=C(C(=O)OC)[C@@H]1c1ccccc1Cl` gave an inhibition of -2%.
`CC(C)=CCC[C@@](C)(O)[C@H]1CC[C@]2(C)[C@@H]1[C@H](O)C[C@@H]1[C@@]3(C)CC[C@H](O[C@@H]4O[C@H](CO)[C@@H](O)[C@H](O)[C@H]4O[C@@H]4O[C@H](CO)[C@@H](O)[C@H](O)[C@H]4O[C@@H]4OC[C@@H](O)[C@H](O)[C@H]4O)C(C)(C)[C@@H]3CC[C@]12C` gave an inhibition of -13%.
The inhibition of `O=C1c2c(O)cc(O)cc2O[C@H](c2ccc(O)c(O)c2)[C@H]1O` is reported as -20%.
`C=C(C)[C@H](CC=C(C)C)Cc1c(O)cc(O)c2c1O[C@H](c1ccc(O)cc1OC)CC2=O` gave an inhibition of -23%.
`CNC(=C[N+](=O)[O-])NCCSCc1csc(CN(C)C)n1` has an inhibition of -4%.
`COc1ccc2ccc(=O)oc2c1CC(=O)C(C)C` gave an inhibition of -26%.
The inhibition of `C/C=C/C(=O)C1=C(C)CCCC1(C)C` is reported as 5%.
For `CCCCCCCCCCCCCCCCCCCC(=O)OC`, the inhibition was 6%.

Set 3
Target: Diamine acetyltransferase 1 (Homo sapiens, UniProt P21673)
Mode: inhibitor
Tested at: 10 µM
Baseline: control
Construct (P21673 1-171): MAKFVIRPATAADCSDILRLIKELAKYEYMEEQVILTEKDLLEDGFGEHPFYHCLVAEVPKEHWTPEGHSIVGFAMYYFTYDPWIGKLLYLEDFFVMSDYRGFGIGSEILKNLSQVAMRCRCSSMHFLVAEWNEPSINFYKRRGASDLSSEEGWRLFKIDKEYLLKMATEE
`O=C(O)/C=C\C(=O)O` gave a remaining activity of 80.9%.
`COc1c(-c2ccccc2)oc2cc(O)cc(O)c2c1=O` gave a remaining activity of 83.9%.
`CC(=O)c1ccc(O)c(O)c1` has a remaining activity of 102%.
With `CCCCCCCCCCCCCCCCCCCC` the remaining activity was 85.5%.
`C[C@@H]1O[C@@H](O[C@H]2C(=O)c3c(O)cc(O)cc3O[C@@H]2c2ccc(O)c(O)c2)[C@H](O)[C@H](O)[C@H]1O` gave a remaining activity of 84.8%.
The remaining activity of `CC(/C=C/C=C(\C)C(=O)O)=C\C=C\C=C(C)\C=C\C=C(/C)C(=O)O` is reported as 113%.
For `CC(=O)CCCC(C)CCCC(C)CCCC(C)C` (stereo not shown), the remaining activity was 78.4%.

Set 4
SMILES: C=CCc1ccc(O)c(-c2cc(CC=C)ccc2O)c1
Effect on: chloride current
Technique: whole-cell voltage clamp
The IC50 was 31.4 µM (Anoctamin-1 (ANO1, Homo sapiens, UniProt Q5XXA6, del476-501/E649D); inhibitor; E623D mutant at 20 mV).
For Anoctamin-1 (ANO1, Homo sapiens, UniProt Q5XXA6, del476-501/E649I); inhibitor; E623I mutant at 80 mV: IC50 read 120 µM.
The IC50 was 107 µM (Anoctamin-1 (ANO1, Homo sapiens, UniProt Q5XXA6, del476-501/M544V); inhibitor; 60 mV holding voltage).
Anoctamin-1 (ANO1, Homo sapiens, UniProt Q5XXA6, D383A/del476-501); inhibitor; pore pocket mutant D383A at 100 mV, with: 300 nM Ca2+ — IC50: 36.8 µM.
For Anoctamin-1 (ANO1, Homo sapiens, UniProt Q5XXA6, del476-501/F623A); membrane voltage -20 mV: IC50 read 31 µM.
Anoctamin-1 (ANO1, Homo sapiens, UniProt Q5XXA6, del476-501/R541I); inhibitor; mutant R515I — IC50: 134 µM.
It gave 25.4 µM for IC50 (Anoctamin-1 (ANO1, Homo sapiens, UniProt Q5XXA6, del476-501/R541K); inhibitor; R515K mutant at 80 mV).
For Anoctamin-1 (ANO1, Homo sapiens, UniProt Q5XXA6, del476-501/F627A); inhibitor; mutant F601A at 100 mV, with: 300 nM Ca2+: IC50 read 27.7 µM.
